Measurements pooled from the literature.
“And” joins repeats or separate records; there may be more than shown. Numbers after ± are the reported error.

CN([O-])C(=O)CN1CCN(CC(=O)N(C)[O-])CCN(CC(=O)N(C)[O-])CC1.[89Zr+4]
intact complex (radio-TLC; human serum; 3 days, run 2): 100%

COc1cccc(OC)c1-c1cc(C(=O)NC2(C(=O)O)C3CC4CC(C3)CC2C4)nn1-c1ccc(C(=O)N(C)CCCN(C)C(=O)[C@H](CCCCNC(=O)[C@H](CC(C)C)NC(=O)C2OC2C(=O)O)NC(=O)CN2CCN(CC(=O)[O-])CCN(CC(=O)[O-])CCN(CC(=O)[O-])CC2)cc1C(C)C.[177Lu+3] (mixture of isomers)
tumour-to-muscle ratio (mouse, HT-29 xenograft; 168 h post injection, biodistribution; relative to: tumour over muscle uptake): 7.56

C/C(N)=N/C(=N\S(=O)(=O)c1ccc(C(F)(F)F)cc1)N1C[C@H](c2ccccc2)C(c2ccc(Cl)cc2)=N1
AUC(0-inf) (C57BL/6 mouse, plasma; intravenous, 10 mg/kg): 10500 ng·h/mL

OC1(C(F)(F)F)CCN(c2nc(Nc3ccnc(C(F)(F)F)c3)nc(-c3cccc(C(F)(F)F)n3)n2)C1 (centres unmarked)
AUC(0-t) (Sprague-Dawley rat, both sexes, plasma; oral gavage, 20 mg/kg): 40300 ± 7160 ng·h/mL

CC[C@H](C)[C@@H]1NC(=O)[C@H](Cc2ccc(O)cc2)NC(=O)CCCSC[C@@H](C(=O)N(CC(=O)N[C@@H](CC(C)C)C(=O)NCC(N)=O)Cc2ccc(F)cc2)NC(=O)[C@H](CC(N)=O)NC(=O)[C@H](CCC(N)=O)NC1=O
AUC(0-last) (healthy human females, plasma; intranasal, 100 µg single dose): 0.033 ng·h/mL

COC1C=COC2(C)Oc3c(C)c(O)c4c(c3C2=O)C2=NC3(CCN(CC(C)C)CC3)NC2=C(NC(=O)C(C)=CC=CC(C)C(O)C(C)C(O)C(C)C(OC(=O)c2cccnc2)C1C)C4=O (centres unmarked)
elimination rate constant (CD-1 mouse female, plasma; intravenous, 5 mg/kg): 2.86e-05 s⁻¹

CC(C)(O)c1ncc([S@](N)(=O)=NC(=O)Nc2c3c(cc4c2CCC4)CCC3)s1
subjects with adverse events (item: general and administration-site disorders; healthy human volunteers; oral, 100 mg single dose, spray-dried dispersion): 50%

CN(Cc1ccccc1)C(=O)CN1CCN(CC(=O)N(C)Cc2ccccc2)CCN(Cc2cccc(C(=O)[O-])n2)CC1.[44Sc+3]
tracer uptake (mouse, kidney; intravenous, 1 h): 2.72 %ID/g

CC(C)(O)c1ccc(N2Cc3c(ccnc3-c3ccc(F)cc3OCC(F)(F)F)C2=O)cc1
concentration (male C57BL/6 mouse, plasma; oral, 1 mg/kg, 6 h): 428 ng/mL

C=CC(=O)N1CC2C(=O)N(CCN(C)C)c3c(c4cc(Cl)c(-c5c(O)cccc5F)nc4n(-c4c(C)ccnc4C(C)C)c3=O)N2CC1C (centres unmarked)
concentration (mouse, brain; oral, 30 mg/kg, 4 h): 9.17 ng/mL

CC(C(=O)O)n1nc(Cn2cc3cc(OCC[18F])c(Cl)cc3n2)c2ccccc2c1=O (racemic)
tracer uptake (rat, lung; 2 h): 0.25 %ID/g

CN(O)C(=O)CCC(=O)NCCCN(CCCCN(CCCNC(=O)CCC(=O)N(C)O)C(=O)CCC(=O)N(C)O)C(=O)CCC(=O)N(C)O.[89Zr]
intact compound (0.9 % NaCl saline; 7 days, pH 4.5, 37 °C): 95.9 ± 2.7%

Cc1cc(C)n(CCN(CCN)CCCCCCNC(=O)[C@@H](N)Cc2c[nH]cn2)n1.[99Tc+].[C-]#[O+].[C-]#[O+].[C-]#[O+]
tissue uptake (BALB/c nude mice, MCF7 xenograft, bone; intravenous, 4 h): 0.15 ± 0.03 %IA/g

CCC1CNC(CC)CN(C(C(=O)[O-])c2ccc(C(=O)[O-])cc2)C(CC)CN(CC(=O)[O-])C(CC)CN1.[Mn+2] (centres unmarked)
Mn content (ICP-MS; BALB/c mouse, intestine; intravenous, 0.05 mmol/kg, 1440 min, without anaesthesia): 9.17 ± 2.62 µg/g

CC(C)n1ncc2c(C(=O)NC[C@@H](C)N)cc(C3CC3)nc21
concentration (female BALB/c mouse, plasma; intraperitoneal, 30 mg/kg, 8 h): 247 ng/mL

O=C(CCCCCCCCCCCCCCCCC(=O)Oc1c2n(cc(C(=O)NCc3c(F)cc(F)cc3F)c1=O)CC1OC3CCC(C3)N1C2=O)Oc1c2n(cc(C(=O)NCc3c(F)cc(F)cc3F)c1=O)CC1OC3CCC(C3)N1C2=O (centres unmarked)
prodrug hydrolysed (human plasma; 1 µM, 24 h, 1% methanol): 45%

COc1cccc(OC)c1-c1cc(C(=O)NC2(C(=O)O)C3CC4CC(C3)CC2C4)nn1-c1ccc(C(=O)N(C)CCCN(C)CCCN(C)C(=O)[C@H](CCCCNC(=O)[C@H](CC(C)C)NC(=O)C2OC2C(=O)O)NC(=O)CN2CCN(CC(=O)[O-])CCN(CC(=O)[O-])CCN(CC(=O)[O-])CC2)cc1C(C)C.[177Lu+3] (mixture of isomers)
renal retention (HT-29 xenograft mouse, kidney; 168 h; relative to: initial uptake): 31 ± 7%

Cc1nn(-c2nc3c(F)cc(F)cc3s2)c(O)c1C(c1ccc(C(F)(F)F)cc1)c1c(C)nn(-c2nc3c(F)cc(F)cc3s2)c1O
AUC(0-inf) per dose (ICR mouse, plasma; oral, 50 mg/kg): 7720 kg·ng·h/mL/mg and 7670 kg·ng·h/mL/mg and 7080 kg·ng·h/mL/mg

Cc1noc(C)c1Cn1cc(N2C(=O)CN(Cc3cccc(OS(=O)(=O)O)c3)C2=O)cn1
plasma concentration (Sprague-Dawley rat, male; oral, 100 mg/kg of parent drug, 12 h): 2570 ng/mL

CN(CCCO)Cc1ccc(-c2noc(-c3ccc(OCC[18F])c(C(F)(F)F)c3)n2)cc1F
brain uptake (Sprague-Dawley rat, male, brain; intravenous, 5 min): 0.93 ± 0.02 %ID/g

Cc1ccc(OCC(=O)N(Cc2cccs2)c2ccn[nH]2)cc1
remaining compound (human plasma; 750 ng/mL, 0.25 h, 37 °C, unit not given; relative to: time zero): 113

CC(C)C[C@@H]1NC(=O)[C@H](C(C)C)NC(=O)[C@H](Cc2c[nH]c3ccccc23)NC(=O)[C@@H]2CSSC[C@H](NC(=O)[C@H](Cc3ccc(O)cc3)NC(=O)[C@H](C(C)C)NC(=O)[C@H](CCCNC(=N)N)NC(=O)CNC(=O)[C@H]3CCCN3C1=O)C(=O)N[C@@H](CCC(N)=O)C(=O)N1CCC[C@H]1C(=O)NCC(=O)N[C@@H](Cc1c[nH]c3ccccc13)C(=O)N2
half-life (chemical stability; simulated intestinal fluid; pH 6.5): 10.6 h

O=C([O-])CN1CCN(CC(=O)[O-])CCN(Cc2cccc(C(=O)[O-])n2)CC1.[18F-].[Sc+3]
tracer uptake (mouse, bone; intravenous, 1 h): 0.2 %ID/g

C=CC(=O)Nc1cc(Nc2nccc(-c3c[nH]c4ccccc34)n2)c(OC)cc1N(C)CCN(C)C
recovery (storage stability; human dried blood spot; 10 d, on ice, MQC level): 73.6%

C=C(NC(=O)c1csc(-c2nc3c(cc2O)-c2nc(cs2)C(=O)NC(C(C)O)C(=O)NC(=C(C)OC)c2nc(cs2)C(=O)NC2c4nc(cs4)C(=O)NC(COC(=O)c4c5c6c(cccc6n4O)COC(=O)C(OC4CC(C)(O)C(N(C)C)C(C)O4)C2OC5)c2nc-3cs2)n1)C(N)=O (centres unmarked)
AUC(0-inf) (Sprague-Dawley rats, both sexes, plasma; intravenous infusion, 6 mg/kg, day 7, multiple dosing): 1630 ng·h/mL

N#C[C@@H]1CCCN1C(=O)CNC(=O)c1ccnc2ccc(OCCCN3CCN(C(=O)CCc4ccc(O)c(CN5CCN6CC(=O)[O][Al-]([18F])([O]C(=O)C5)[O]c5ccc(CCC(=O)N7CCN(CCCOc8ccc9nccc(C(=O)NCC(=O)N%10CCC[C@H]%10C#N)c9c8)CC7)cc5C6)c4)CC3)cc12 (some centres unmarked)
tumour-to-organ ratio (BALB/c nude mice, U-87 MG tumour; 120 min post-injection; relative to: tumour over liver): 10.8 ± 1.34

CC(C)c1cnc(-c2cc(Cl)ccc2F)cc1Nc1ccncc1C(=O)NC(CO)CO
unbound Cmax (female C57BL/6 mice, plasma; oral, 30 mg/kg twice daily, day 1, MC-38 tumour-bearing): 127 nM

CCCCCCCCCCCCCCCC(=O)N[C@@H](CCCCN)C(=O)N[C@@H](CCCCN)C(=O)N[C@@H](CO)C(=O)N[C@@H](CCCNC(=N)N)C(=O)N[C@@H](C)C(=O)N[C@@H](CC(C)C)C(=O)N[C@@H](Cc1ccccc1)C(N)=O
Vss (human patients, plasma; intravenous, 0.5 mg/kg over 2 h): 0.1 L/kg

CNc1cc(N)c(C(N)=O)cn1
hepatocyte CLint (metabolic stability; male Wistar rat, hepatocytes; 1 µM, pH 7.4): < 1.3 µL/min/10⁶ cells

O=C(Nc1cnccc1-c1ccc([18F])nc1)c1ccnc(NC(=O)C2CC2)c1
SUV over first 5 min (PET imaging; FVB/NJ mice, both sexes, brain; intravenous, 5 min post-injection, P-gp inhibited, added: tariquidar 15 mg/kg iv, 2 h before): 0.22 ± 0.1

CN(Cc1ccccc1)C(=O)CN1CCN(CC(=O)[O-])CCN(CC(=O)N(C)Cc2ccccc2)CC1.[18F-].[Sc+3]
tracer uptake (mouse, muscle; intravenous, 1 h): 0.11 %ID/g

COc1cccc(OC)c1-c1cc(C(=O)NC2(C(=O)O)C3CC4CC(C3)CC2C4)nn1-c1ccc(C(=O)N(C)CCOCCOCCN(C)C(=O)[C@H](CCCCNC(=O)[C@H](CC(C)C)NC(=O)C2OC2C(=O)O)NC(=O)CN2CCN(CC(=O)[O-])CCN(CC(=O)[O-])CCN(CC(=O)[O-])CC2)cc1C(C)C.[177Lu+3] (mixture of isomers)
tissue uptake (mouse, HT-29 xenograft, kidney; 168 h post injection): 2 %ID/g

CN(Cc1ccccc1)C(=O)CN1CCN(CC(=O)[O-])CCN(Cc2cccc(C(=O)[O-])n2)CC1.[177Lu+3]
uptake (BALB/c mouse, urine; intravenous, 1 h): 151 ± 98 %ID/g

N#C[C@@H]1CC(F)(F)CN1C(=O)CNC(=O)c1ccnc2c(NC(=O)[C@H](CCCCNC(=O)CCOCCOCCOCCOCCOCCOCCNC(=O)CN3CCN(CC(=O)[O-])CCN(CC(=O)[O-])CCN(CC(=O)[O-])CC3)NC(=O)CCCc3ccc(I)cc3)cccc12.[177Lu+3]
tissue uptake (mouse, U-87 MG tumour xenograft, salivary gland; 1 h): 7.78 ± 0.57 %ID/g

CN(Cc1ccccc1)C(=O)CN1CCN(CC(=O)[O-])CCN(CC(=O)[O-])CC1.[44Sc+3]
tracer uptake (mouse, spleen; intravenous, 1 h): 0.94 %ID/g

O=C(Nc1cnccc1-c1ccc([18F])cc1)c1ccnc(NC(=O)C2CC2)c1
SUV (mice, transgenic, GSK-3β, early-stage, liver; intravenous, dose not given, 120 min): 2.4

CCCCN1C(=O)c2cccc3c(NCCCCN4CCOCC4)ccc(c23)C1=O
fluorescence lifetime (methanol): 8.8 ns

Oc1ccc([C@@H]2Oc3ccc(O)cc3[C@@H]3CCC[C@@H]32)cc1
CL/F (mouse, plasma; oral, 10 mg/kg): 0.12 L/h
